Assay results of several laboratories.
± gives the spread as reported.
Technique: steady-state kinetics
B1: cyc1 V329A (Streptomyces coelicolor, UniProt Q9K499); chain MHAFPHGTTATPTAIAVPPSLRLPVIEAAFPRQLHPYWPKLQETTRTWLLEKRLMPADKVEEYADGLCYTDLMAGYYLGAPDEVLQAIADYSAWFFVWDDRHDRDIVHGRAGAWRRLRGLLHTALDSPGDHLHHEDTLVAGFADSVRRLYAFLPATWNARFARHFHTVIEAYDREFHNRTRGIVPGVEEYLELRRLTFAHWIWTDLLEPSSGCELPDAVRKHPAYRRAALLSQEFAAWYNDLCSLPKEIAGDEVHNLGISLITHHSLTLEEAIGEVRRRVEECITEFLAVERDALRFADELADGTVRGKELSGAVRANVGNMRNWFSSAYWFHHESGRYMVDSWDDRSTPPYVNNEAAGEK
B2: PduO F112H (Limosilactobacillus reuteri, UniProt Q50EJ2); chain MKIYTKNGDKGQTRIIGKQILYKNDPRVAAYGEVDELNSWVGYTKSLINSHTQVLSNELEEIQQLLFDCGHDLATPADDERHSFKFKQEQPTVWLEEKIDNYTQVVPAVKKHILPGGTQLASALHVARTITRRAERQIVQLMREEQINQDVLIFINRLSDYFFAAARYANYLEQQPDMLYRNSKDVFR
B3: enzyme (Pseudomonas aeruginosa, UniProt Q51366); chain MTRSALVTGITGQDGAYLAKLLLEKGYRVHGLVARRSSDTRWRLRELGIEGDIQYEDGDMADACSVQRAVIKAQPQEVYNLAAQSFVGASWNQPVTTGVVDGLGVTHLLEAIRQFSPETRFYQASTSEMFGLIQAERQDENTPFYPRSPYGVAKLYGHWITVNYRESFGLHASSGILFNHESPLRGIEFVTRKVTDAVARIKLGKQQELRLGNVDAKRDWGFAGDYVEAMWLMLQQDKADDYVVATGVTTTVRDMCQIAFEHVGLDYRDFLKIDPAFFRPAEVDVLLGNPAKAQRVLGWKPRTSLDELIRMMVEADLRRVSRE
B4: POLK T408W/W214Y/W392H (Homo sapiens, UniProt Q9UBT6); chain MGLNDNKAGMEGLDKEKINKIIMEATKGSRFYGNELKKEKQVNQRIENMMQQKAQITSQQLRKAQLQVDRFAMELEQSRNLSNTIVHIDMDAFYAAVEMRDNPELKDKPIAVGSMSMLSTSNYHARRFGVRAAMPGFIAKRLCPQLIIVPPNFDKYRAVSKEVKEILADYDPNFMAMSLDEAYLNITKHLEERQNYPEDKRRYFIKMGSSVENDNPGKEVNKLSEHERSISPLLFEESPSDVQPPGDPFQVNFEEQNNPQILQNSVVFGTSAQEVVKEIRFRIEQKTTLTASAGIAPNTMLAKVCSDKNKPNGQYQILPNRQAVMDFIKDLPIRKVSGIGKVTEKMLKALGIITCTELYQQRALLSLLFSETSHHYFLHISLGLGSTHLWRDGERKSMSVERTFSEINKAEEQYSLCQELCSELAQDLQKERLKGRTVTIKLKNVNFEVKTRASTVSSVVSTAEEIFAIAKELLKTEIDADFPHPLRLRLMGVRISSFPNEEDRKHQQ
B5: iodotyrosine deiodinase (Haliscomenobacter hydrossis, UniProt F4KU78); chain MKQKPAFIPYAGAQFEPEEMLSKSAEYYQFMDHRRTVREFSNRAIPLEVIENIVMTASTAPSGAHKQPWTFVVVSDPQIKAKIRQAAEKEEFESYNGRMSNEWLEDLQPFGTDWHKPFLEIAPYLIVVFRKAYDVLPDGTQRKNYYVQESVGIACGFLLAAIHQAGLVALTHTPSPMNFLQKILQRPENERPFLLVPVGYPAEGAMVPDLQRKDKAAVMVVY
B6: BaiA1 (Clostridium scindens, UniProt P07914); chain MKLVQDKITIITGGTRGIGFAAAKLFIENGAKVSIFGETQEEVDTALAQLKELYPEEEVLGFAPDLTSRDAVMAAVGTVAQKYGRLDVMINNAGITMNSVFSRVSEEDFKNIMDINVNGVFNGAWSAYQCMKDAKQGVIINTASVTGIYGSLSGIGYPTSKAGVIGLTHGLGREIIRKNIRVVGVAPGVVDTDMTKGLPPEILEDYLKTLPMKRMLKPEEIANVYLFLASDLASGITATTISVDGAYRP
B7: SACOL1063 (Staphylococcus aureus, UniProt Q5HH30); chain MFSKVNNQKMLEDCFYIRKKVFVEEQGVPEESEIDEYESESIHLIGYDNGQPVATARIRPINETTVKIERVAVMKSHRGQGMGRMLMQAVESLAKDEGFYVATMNAQCHAIPFYESLNFKMRGNIFLEEGIEHIEMTKKLTSLN
B8: tsaM1 F253S/H255G/M230N/R216A/S234V/S257H (Comamonas testosteroni, UniProt P94679); chain MFIRNCWYVAAWDTEIPAEGLFHRTLLNEPVLLYRDTQGRVVALENRCCHRSAPLHIGRQEGDCVRCLYHGLKFNPSGACVEIPGQEQIPPKTCIKSYPVVERNRLVWIWMGDPARANPDDIVDYFWHDSPEWRMKPGYIHYQANYKLIVDNLLDFTHLAWVHPTTLGTDSAASLKPVIERDTTGTGKLTITRWYLNDDMSNLHKGVAKFEGKADAWQIYQWSPPALLRNDTGVAPTGTGAPEGRRVPEAVQSRGTHIQTPETETTSHYWFCQARNFDLDDEALTEKIYQGVVVAFEEDRTMIEAHEKILSQVPDRPMVPIAADAGLNQGRWLLDRLLKAENGGTAP
B9: protein Y93P (Thermus thermophilus, UniProt Q5SKR5); chain MSAPKPFVIGIAGGTASGKTTLAQALARTLGERVALLPMDHYYKDLGHLPLEERLRVNYDHPDAFDLALYLEHAQALLRGLPVEMPVYDFRAPTRSPRRTPVRPAPVVILEGILVLYPKELRDLMDLKVFVDADADERFIRRLKRDVLERGRSLEGVVAQYLEQVKPMHLHFVEPTKRYADVIVPRGGQNPVALEMLAAKALARLARMGAA
B10: vioC (Streptomyces vinaceus, UniProt Q6WZB0); chain MTESPTTHHGAAPPDSVATPVRPWSEFRLTPAEAAAAAALAARCAQRYDETDGPEFLLDAPVIAHELPRRLRTFMARARLDAWPHALVVRGNPVDDAALGSTPVHWRTARTPGSRPLSFLLMLYAGLLGDVFGWATQQDGRVVTDVLPIKGGEHTLVSSSSRQELGWHTEDAFSPYRADYVGLLSLRNPDGVATTLAGVPLDDLDERTLDVLFQERFLIRPDDSHLQVNNSTAQQGRVEFEGIAQAADRPEPVAILTGHRAAPHLRVDGDFSAPAEGDEEAAAALGTLRKLIDASLYELVLDQGDVAFIDNRRAVHGRRAFQPRYDGRDRWLKRINITRDLHRSRKAWAGDSRVLGQR
UniProt Q92UV7, sequence (whole entry, looked up): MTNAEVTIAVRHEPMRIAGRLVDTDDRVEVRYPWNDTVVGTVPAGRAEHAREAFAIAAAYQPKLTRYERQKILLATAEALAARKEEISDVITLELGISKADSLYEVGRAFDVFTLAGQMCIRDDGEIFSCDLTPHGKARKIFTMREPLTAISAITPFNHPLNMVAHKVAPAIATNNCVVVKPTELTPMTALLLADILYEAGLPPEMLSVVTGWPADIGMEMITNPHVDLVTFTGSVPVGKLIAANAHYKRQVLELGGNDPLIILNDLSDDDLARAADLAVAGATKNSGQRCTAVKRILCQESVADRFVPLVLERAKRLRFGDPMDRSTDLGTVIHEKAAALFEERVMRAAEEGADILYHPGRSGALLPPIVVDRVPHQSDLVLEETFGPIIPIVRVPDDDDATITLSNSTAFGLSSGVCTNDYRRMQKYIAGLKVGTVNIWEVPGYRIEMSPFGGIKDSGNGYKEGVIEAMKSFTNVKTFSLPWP
UniProt P12081, sequence (whole entry, looked up): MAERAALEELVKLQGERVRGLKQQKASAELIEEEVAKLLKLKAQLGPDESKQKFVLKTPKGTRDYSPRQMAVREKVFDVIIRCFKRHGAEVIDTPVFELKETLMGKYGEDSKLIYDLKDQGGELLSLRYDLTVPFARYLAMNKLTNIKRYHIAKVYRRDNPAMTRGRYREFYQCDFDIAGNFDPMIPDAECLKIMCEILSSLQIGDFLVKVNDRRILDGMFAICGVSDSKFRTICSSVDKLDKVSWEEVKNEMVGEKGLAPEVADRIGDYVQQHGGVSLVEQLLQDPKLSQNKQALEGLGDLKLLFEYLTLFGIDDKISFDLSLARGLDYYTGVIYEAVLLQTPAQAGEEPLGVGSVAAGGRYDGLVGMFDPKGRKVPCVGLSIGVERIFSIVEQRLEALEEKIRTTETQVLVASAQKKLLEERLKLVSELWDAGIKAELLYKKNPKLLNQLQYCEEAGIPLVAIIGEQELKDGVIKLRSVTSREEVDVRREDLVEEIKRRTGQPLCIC

| Substance | substrate | pH | temperature | notes | added | kcat |
| --- | --- | --- | --- | --- | --- | --- |
| B1 (cyc1 V329A) | CC(C)=CCC/C(C)=C/CC/C(C)=C/CO[P@@](=O)(O)OP(=O)(O)O | pH 6.5 | 30 °C | – | MgCl2 10 mM | 0.126 ± 0.007 s⁻¹ |
| B2 (PduO F112H) | Nc1ncnc2c1ncn2[C@@H]1O[C@H](COP(=O)(O)OP(=O)(O)OP(=O)(O)O)[C@@H](O)[C@H]1O | pH 8 | 37 °C | anoxic | cob(I)alamin | 0.00038 ± 1e-05 s⁻¹ |
| LovD A86V/C40A/C60N (Aspergillus terreus) | CCC(C)(C)C(=O)SCCC(=O)OC | – | 25 °C | 10% DMSO | 2 mM MJA | 0.0132 ± 0.0005 s⁻¹ |
| B3 (enzyme) | Nc1nc2c(ncn2[C@@H]2O[C@H](COP(=O)(O)OP(=O)(O)O[C@H]3O[C@H](CO)[C@@H](O)[C@H](O)[C@@H]3O)[C@@H](O)[C@H]2O)c(=O)[nH]1 | – | 37 °C | – | – | 8.82 s⁻¹ |
| B4 (POLK T408W/W214Y/W392H) | Nc1ccn([C@H]2C[C@H](O)[C@@H](COP(=O)(O)OP(=O)(O)OP(=O)(O)O)O2)c(=O)n1 | pH 7.5 | 23 °C | MgCl2 5 mM | G template | 0.017 ± 0.001 s⁻¹ |
| enzyme (Pseudomonas putida, UniProt F8G0M2) | O=CNC(=O)/C=C\C(=O)O | pH 6.7 | 25 °C | – | – | 542 ± 9 s⁻¹ |
| B5 (iodotyrosine deiodinase) | N[C@@H](Cc1cc(F)c(O)c(I)c1)C(=O)O | pH 7.4 | 25 °C | – | – | 0.27 ± 0.05 s⁻¹ |
| B6 (BaiA1) | C[C@H](CCC(=O)SCCNC(=O)CCNC(=O)[C@H](O)C(C)(C)COP(=O)(O)OP(=O)(O)OC[C@H]1O[C@@H](n2cnc3c(N)ncnc32)[C@H](O)[C@@H]1OP(=O)(O)O)[C@H]1CC[C@H]2[C@@H]3CC[C@@H]4CC(=O)CC[C@]4(C)[C@H]3C[C@H](O)[C@]12C | pH 8.7 | 37 °C | – | NADH | 0.733 s⁻¹ |
| B7 (SACOL1063) | CC(=O)SCCNC(=O)CCNC(=O)[C@H](O)C(C)(C)COP(=O)(O)OP(=O)(O)OC[C@H]1O[C@@H](n2cnc3c(N)ncnc32)[C@H](O)[C@@H]1OP(=O)(O)O | pH 8 | 37 °C | – | L-Thr 10 mM, AcCoA 0-2 mM | 5.37 s⁻¹ |
| enzyme (Sinorhizobium meliloti, UniProt Q92UV7) | NC(=O)c1ccc[n+]([C@@H]2O[C@H](COP(=O)(O)OP(=O)(O)OC[C@H]3O[C@@H](n4cnc5c(N)ncnc54)[C@H](O)[C@@H]3O)[C@@H](O)[C@H]2O)c1 | pH 7.5 | 30 °C | cofactor varied | – | 2.2 ± 0.1 s⁻¹ |
| B8 | COc1cc(C(=O)O)ccc1O | – | – | apparent | NADH 1 mM | 0.0633 ± 0.00333 s⁻¹ |
| B9 (protein Y93P) | Nc1ccn([C@@H]2O[C@H](CO)[C@@H](O)[C@H]2O)c(=O)n1 | pH 7.2 | 25 °C | KCl 100 mM | ATP 100–200 µM | 4.6 ± 0.9 s⁻¹ |
| enzyme (Trypanosoma brucei, UniProt Q8WQX5) | O=c1ccn([C@@H]2O[C@H](COP(=O)(O)OP(=O)(O)OP(=O)(O)O)[C@@H](O)[C@H]2O)c(=O)[nH]1 | pH 8 | 27 °C | apparent | – | 0.392 ± 0.01 s⁻¹ |
| HARS1 (Homo sapiens, UniProt P12081) | N[C@@H](Cc1c[nH]cn1)C(=O)O | pH 7.5 | 37 °C | KCl 150 mM | tRNA(His) | 4.1 ± 0.4 s⁻¹ |
| B10 (vioC) | N=C(N)NOCC[C@H](N)C(=O)O | pH 8 | 30 °C | – | alpha-ketoglutarate 1.0 mM | 1.22 ± 0.065 s⁻¹ |
| Ptb (Listeria monocytogenes, UniProt Q8Y7B7) | CC(=O)SCCNC(=O)CCNC(=O)[C@H](O)C(C)(C)COP(=O)(O)OP(=O)(O)OC[C@H]1O[C@@H](n2cnc3c(N)ncnc32)[C@H](O)[C@@H]1OP(=O)(O)O | pH 7.5 | 25 °C | apparent, poor fit | – | 302 ± 104 s⁻¹ |

Excerpt of the above:
| Substance | substrate | pH | temperature | notes | added | kcat |
| --- | --- | --- | --- | --- | --- | --- |
| enzyme (Trypanosoma brucei, UniProt Q8WQX5) | O=c1ccn([C@@H]2O[C@H](COP(=O)(O)OP(=O)(O)OP(=O)(O)O)[C@@H](O)[C@H]2O)c(=O)[nH]1 | pH 8 | 27 °C | apparent | – | 0.392 ± 0.01 s⁻¹ |
| HARS1 (Homo sapiens, UniProt P12081) | N[C@@H](Cc1c[nH]cn1)C(=O)O | pH 7.5 | 37 °C | KCl 150 mM | tRNA(His) | 4.1 ± 0.4 s⁻¹ |
